Measurements of several laboratories.
Parts stem from different laboratories: compare values within a part only. Changes are numbered by the printed parent chain.

Set 1
Target: Ras GTPase-activating protein-binding protein 1, full length (G3BP1, Homo sapiens, UniProt Q13283)
Sequence of UniProt Q13283 (whole entry, looked up): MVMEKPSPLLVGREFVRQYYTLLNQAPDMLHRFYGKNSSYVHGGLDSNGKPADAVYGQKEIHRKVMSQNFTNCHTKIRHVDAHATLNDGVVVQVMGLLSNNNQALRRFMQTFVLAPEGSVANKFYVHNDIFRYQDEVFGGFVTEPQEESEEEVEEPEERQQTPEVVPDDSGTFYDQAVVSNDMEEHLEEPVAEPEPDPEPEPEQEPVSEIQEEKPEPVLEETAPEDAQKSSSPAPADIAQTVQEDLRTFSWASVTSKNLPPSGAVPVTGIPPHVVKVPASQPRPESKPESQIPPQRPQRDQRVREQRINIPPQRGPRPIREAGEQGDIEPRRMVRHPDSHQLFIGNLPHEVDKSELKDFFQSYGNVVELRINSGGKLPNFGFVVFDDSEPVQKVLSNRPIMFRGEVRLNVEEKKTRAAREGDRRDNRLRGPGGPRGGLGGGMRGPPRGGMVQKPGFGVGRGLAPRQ
Technique: RNA Bind-n-Seq
Form: RNA
Sample: in vitro
Concentration: 200 nM
Notes: whole 134-nt RNA, ends assumed
Together with: 150 mM KCl
Baseline: input library
Reading: higher = stronger binding
All sequences stand within: GGGAGUUCUACAGUCCGACGAUC … UGGAAUUCUCGGGUGUCAAGG
With `AAGUCCUGUGCUACACAUCGUAUGUACCGAAUCGGGGCCCGGGCCCGGGGCCCGGGGAAAGUAUUAUGUUACGCCGUUCGGAUCUGCACU` the log2 enrichment was -1.16.
With `GCAGGAAGUAAAAACAAAUGGAAAUGCUUCGGGUAGUGGCAGGGGUGGGGGUUGCUAAGGAAAGGGUGGGAUGGGAGUGGGUAAAGAGUU` the log2 enrichment was 0.826.
`GUCCUGUGCUACACAUCGUAUGUACCGAAUCAAACCCAAAUUUUUUUAAACCCCCAAAAAAGUAUUAUGUUACGCCGUUCGGAUCUGCAC` gave a log2 enrichment of -0.281.
`UCAAGUCCUGUGCUACACAUCGUAUGUACCGAAUCGGCCGGGCCGGGGCCGGGGAAAGUAUUAUGUUACGCCGUUCGGAUCUGCACUUCC` gave a log2 enrichment of -0.411.
The log2 enrichment of `UGGCCAAUAGCAUCCUUUUCCAGUCUUCCGGUCUGACAAAUGGAAUAAUAGAAGAAAAGGACAUACAUGAAGAAUUGCCAAAACGGAAAG` is reported as -0.288.
For `GCUGUUCUUGCCUUAGCUGCAUCUUGGACCUCAAGACAAGUAGGAGAACGGACGUUGACCGGUACGGUAAUAGACAGUGGAGAUGGUGUC`, the log2 enrichment was -1.19.
`UCCUCAAGUCCUGUGCUACACAUCGUAUGUACCGAAUCGGGAGGGAGGAGGGAAAGUAUUAUGUUACGCCGUUCGGAUCUGCACUUCCAG` has a log2 enrichment of 1.12.
For `UAACUUUAGAGGAGGAUCUGAUGGAUAUGGCAGUGGACGUGGAUUUGGGGAUGGCUAUAAUGGGUAUGGAGGAGGACCUGCAGGUGGCAA`, the log2 enrichment was -0.00905.
`UGAUCAGCAAAGCCAAGAUGAGCCUUUGAGAAGCAGAAAAGUGUUUGUGGGGCGCUGUACAGAGGACAUGACUGAGGAUGAGCUGCGGGA` gave a log2 enrichment of -0.149.
The log2 enrichment of `GUCCUGUGCUACACAUCGUAUGUACCGAAUCGGGCCCCCGGGCCCCCGGGCCCCCGGGAAAGUAUUAUGUUACGCCGUUCGGAUCUGCAC` is reported as -1.02.
`CCUCAAGUCCUGUGCUACACAUCGUAUGUACCGAAUCGGGUGGGUGGGGUGGGAAAGUAUUAUGUUACGCCGUUCGGAUCUGCACUUCCA` has a log2 enrichment of 0.741.
For `UAACUUUAGAGGAGGACCUGAUGGAUAUGGCAGUGGACGUGGAUUUGGGGAUGGCUAUAAUGGGUAUGGAGGAGGACCUGGAGGUGGCAA`, the log2 enrichment was 0.356.
With `UGCUUGUGUUUCUGACAGAUUCACUGCCUUCUGAGGACUUGGAUCCUGCCGAUCCCCCGAUCUCGGUAACUGUUGGCCUGAUCUGGCUGU` the log2 enrichment was 0.538.
For `UUAAUGAUAUAAGUAGAGAGUAGUAUCCUGGUGGAGUUGUAACCACUAUUUUUGUUUUCUAGAUCCCUAUGGUUCAGGAGGCCAGAAAUU`, the log2 enrichment was -0.866.

Set 2
Target: RNA binding protein fox-1 homolog 2, RRM domain, GST-SBP tag (RBFOX2, Homo sapiens, UniProt O43251-10, residues 100-194)
Technique: RNA Bind-n-Seq
Form: RNA
Sample: in vitro
Concentration: 365 nM
Notes: natural RNA segment, single round, ends assumed
Baseline: no-protein control
Reading: higher = stronger binding
All sequences stand within: GGGAGUUCUACAGUCCGACGAUC … UGGAAUUCUCGGGUGCCAA
Target sequence (chain): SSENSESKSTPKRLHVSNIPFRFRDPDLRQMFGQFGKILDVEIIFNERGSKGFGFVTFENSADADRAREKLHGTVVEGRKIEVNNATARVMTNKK
`CCAGGCUGCUGUAGUCCACCUGUGCCCUACUCAUUUGGGGACAGGUGGUUUUUCUUGUAAACUUGUGGACUUUUGAAACCUGUUGACUAAACAGUAAUUAAUUUAUAUUU`: “RBNS enrichment (R)” 0.458.
`CAAAGGGGGUCACUGGCUUUACCUGGAGCCUGGCCAGCUAGGUAGCUGGACGUAUAUAAAGGGUCCUCGUGCUUGUUCUUUGCCAGUUCCCACUAGAAAAGGCGCUCCUG` — result for “RBNS enrichment (R)”: 3.04.
Under “RBNS enrichment (R)”, `CUCUUCUUUCCUGGGGCAAGCCAGGAGCUCUCAACAGAGGGAGGACUGGAGGGCAGAUGGAGAAAGCUGUCCAAGCCUGUCACUAGGCAUGUGGGUUAGACCAGGUUAGA` is recorded as 9.54.
For `ACAGCCACUGUCACCGUCUCCUCUAGAGCUCACUUGAGCCAGGCCCCUAGCCAGGCUGUGGCUGUCCCUGGGCAUGCUGCAGUCCUCCUGUCCCUUCUCCCCAGUCAGUA`, “RBNS enrichment (R)” read 0.369.
`AGGCCCUCAAUUGUAGUUGUUUCCAGCUGAAUUAAGAGCUUUAAAGUUUCUGGCAUUAGCAGAUGAUUUCUGUUCACCUGGUAAGAAAAGAAUGAUAGGCUUGUCAGAGC`: “RBNS enrichment (R)” 0.311.
For `GAUGAACGUCUUUCCUCUCCUGCCUCCCAUGAGACAGUCUCCUAGGAAUUCUUGGGGAAGUUUGGCUGGAAGCUUGCCAACUGUAAGUUGGAGAAACACACACCUGACAC`, “RBNS enrichment (R)” read 0.242.
`UUUGAAGUUCCAGUCCUCCCUUUGGAGUGGACAUUUAAAAUCUGCAGCCAUUCCUUGCUUCAGUUCCCUUCCACCACCCAGGGCUGGCUUUCCUAUAAGCCACCUCCAGG`: “RBNS enrichment (R)” 0.199.
For `GCUGACCACAGGCAGCUGGCAGGUCCUUUUUUCAACCAGCAGGCUAGGCUGGCCAUAGACCCAGCUCUGCCUCACCCUGCCAUGUUCCAGUAAUGGAGGCCUCCAGCCUG`, “RBNS enrichment (R)” read 0.264.
`GAAGACAGCUUGCCUUUGUGUUCCUAUGAAGACUGUCCCCAACCUUGGACGUGUCCCCUUUAUUUCAUGAGCCUUUCCCCGUUUGGGUUAAGAAGCUGUUAUGCUGUGGG` — result for “RBNS enrichment (R)”: 2.49.
Under “RBNS enrichment (R)”, `AAGGACAUUCUUUUUUAUUGGCGGCUCUGUGACCCCUAGCCGCUUGCACCCGCUCUCUGUUGUACACUUUCAAGCAACACUUUUUCAGACUAAAGGCCAAACAAAAGCUA` is recorded as 0.275.
Under “RBNS enrichment (R)”, `UUGUUAAAAUAAAAGGUGUCACUGUGGUAGGCAUUUGGCAUAUUUUGUGGACUCAGUCAAGCAACCACAGUCUGUUAAUCAUUUCUCUAUGCUCAGAUGUCAGAUCCUCU` is recorded as 0.44.
For `CAGGCCAUAACAGGGUAGAAGAGAGACAUCGUGCAACCCAAUGAGUAGUGAAGGGACUGUGUUGCUUGUGAAGCGGUGUAGUAGCAUUUUUGCAGAUUCUUGGCUGGGUU`, “RBNS enrichment (R)” read 1.27.

Set 3
Target: ABI1, truncated, D143A, DHFR fusion (Arabidopsis thaliana)
Technique: DHFR PCA, deep sequencing
Sample: yeast
Notes: methotrexate growth selection, single substitutions
Together with: (+)-ABA 710 µM
Baseline: wild-type fitted maximum
Reading: higher = stronger binding
Parent: PYL1, truncated, DHFR fusion (Arabidopsis thaliana); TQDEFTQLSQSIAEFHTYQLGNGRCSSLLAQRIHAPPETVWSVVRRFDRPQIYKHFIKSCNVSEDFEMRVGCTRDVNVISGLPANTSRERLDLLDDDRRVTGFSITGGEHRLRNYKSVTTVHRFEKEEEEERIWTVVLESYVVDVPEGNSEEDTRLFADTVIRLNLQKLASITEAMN
Under “relative binding score”, `R132N` is recorded as 111%.
Under “relative binding score”, `D92T` is recorded as 94.7%.
For `H34T`, “relative binding score” read 96.2%.
`F15D`: “relative binding score” 70.7%.
Under “relative binding score”, `E67N` is recorded as 101%.
`F157G` — result for “relative binding score”: -3.63%.
`S104A` — result for “relative binding score”: 82.5%.
`R49G`: “relative binding score” 84.8%.
`Y18K` — result for “relative binding score”: 99.1%.
Under “relative binding score”, `S27D` is recorded as 98%.
`I105P`: “relative binding score” -4.39%.
For `G81E`, “relative binding score” read 48.2%.
Under “relative binding score”, `R88E` is recorded as 101%.
For `P36L`, “relative binding score” read 92.5%.
`D92W`: “relative binding score” 78.9%.
`I133Y` — result for “relative binding score”: 110%.
`K54F` — result for “relative binding score”: -1.93%.
Under “relative binding score”, `R45I` is recorded as 30.6%.
`G81V` — result for “relative binding score”: 53.7%.
Under “relative binding score”, `K126V` is recorded as 113%.
For `W134V`, “relative binding score” read 110%.

Set 4
Target: Interferon regulatory factor 7, full length, phosphomimetic (IRF7, Homo sapiens, UniProt Q92985, residues 1-503, S101K/S471D/S472D/S475D/S476D/S477D/S483D/S484D/S487D)
Technique: protein-binding microarray
Form: double-stranded DNA, one strand shown
Sample: in vitro
Concentration: 250 nM
Notes: 60-bp whole probe
Together with: salmon DNA 0.4 mg/ml
Baseline: random background probes
Reading: higher = stronger binding
All sequences stand within: GCCTAGCAC … GTCTTGATTCGCTTGACGCTGCTG
Target sequence (chain): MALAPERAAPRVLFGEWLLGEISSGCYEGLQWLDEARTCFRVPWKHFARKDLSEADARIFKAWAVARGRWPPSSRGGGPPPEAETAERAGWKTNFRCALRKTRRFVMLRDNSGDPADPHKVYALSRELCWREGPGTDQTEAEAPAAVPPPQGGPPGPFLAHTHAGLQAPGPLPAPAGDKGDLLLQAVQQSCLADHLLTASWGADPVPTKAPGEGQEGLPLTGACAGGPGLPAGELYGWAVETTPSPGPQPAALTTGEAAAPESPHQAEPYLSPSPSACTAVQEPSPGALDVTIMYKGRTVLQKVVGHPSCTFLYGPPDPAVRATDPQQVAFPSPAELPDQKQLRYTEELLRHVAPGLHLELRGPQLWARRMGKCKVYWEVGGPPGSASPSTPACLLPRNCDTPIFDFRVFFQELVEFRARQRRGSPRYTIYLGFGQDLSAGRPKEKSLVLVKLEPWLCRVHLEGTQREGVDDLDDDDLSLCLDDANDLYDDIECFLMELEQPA
With `TGTCCTTTTCTTTACTGATGGTGCTAG` the log fluorescence was 1.56 z-score.
With `TCACATCTTGTTCCCAGACTGTGCTAG` the log fluorescence was 1.17 z-score.
`GACGATTTCAGTTCCGAGAGGTGCTAG` has a log fluorescence of 0.39 z-score.
For `AGTCATCTCCAAAGTCAGCCAGTGCTA`, the log fluorescence was -0.344 z-score.
For `CCACTCTTGCTTTTTAGATCGTGCTAG`, the log fluorescence was 0.356 z-score.
`AGTATGTTCACTATTTAAGGGTGCTAG` gave a log fluorescence of 0.231 z-score.
The log fluorescence of `TCATTTTTTTTTTTACTACTGTGCTAG` is reported as 1.1 z-score.
The log fluorescence of `TTAGGTTTCGGGACTGGATTAGTGCTA` is reported as 4.22 z-score.
For `TCAGGACTGCTTATCCTTTAGTGCTAG`, the log fluorescence was -0.0211 z-score.
`TCACTTTTTTTTTTTTTACTGTGCTAG` has a log fluorescence of 0.834 z-score.
The log fluorescence of `TTAGGTTTCAACACTGGGTTAGTGCTA` is reported as 0.0136 z-score.
The log fluorescence of `TTGATAATTTTTTTCTAAGTGTGCTAG` is reported as -0.0963 z-score.
`AGTTAATCCCTCTCAGGCATGTGCTAG` has a log fluorescence of 0.0752 z-score.
`TCATGTTTGGTTCTTATACTGTGCTAG` gave a log fluorescence of 0.878 z-score.
`AGATACCTTTAACAGTGCCTGTGCTAG` has a log fluorescence of -0.199 z-score.
The log fluorescence of `TTAGGACTGCTTATACTTTAGTGCTAG` is reported as -0.145 z-score.

Some of these lines once more (set 3):
`G81V` — result for “relative binding score”: 53.7%.
`F15D`: “relative binding score” 70.7%.
`K54F` — result for “relative binding score”: -1.93%.
Under “relative binding score”, `K126V` is recorded as 113%.
Under “relative binding score”, `R132N` is recorded as 111%.
